Published values pooled from the literature.
Protocols differ between the studies behind these lines.
Target: Tau-tubulin kinase 1 (TTBK1, Homo sapiens, UniProt Q5TCY1)
Sequence of UniProt Q5TCY1 (whole entry, looked up): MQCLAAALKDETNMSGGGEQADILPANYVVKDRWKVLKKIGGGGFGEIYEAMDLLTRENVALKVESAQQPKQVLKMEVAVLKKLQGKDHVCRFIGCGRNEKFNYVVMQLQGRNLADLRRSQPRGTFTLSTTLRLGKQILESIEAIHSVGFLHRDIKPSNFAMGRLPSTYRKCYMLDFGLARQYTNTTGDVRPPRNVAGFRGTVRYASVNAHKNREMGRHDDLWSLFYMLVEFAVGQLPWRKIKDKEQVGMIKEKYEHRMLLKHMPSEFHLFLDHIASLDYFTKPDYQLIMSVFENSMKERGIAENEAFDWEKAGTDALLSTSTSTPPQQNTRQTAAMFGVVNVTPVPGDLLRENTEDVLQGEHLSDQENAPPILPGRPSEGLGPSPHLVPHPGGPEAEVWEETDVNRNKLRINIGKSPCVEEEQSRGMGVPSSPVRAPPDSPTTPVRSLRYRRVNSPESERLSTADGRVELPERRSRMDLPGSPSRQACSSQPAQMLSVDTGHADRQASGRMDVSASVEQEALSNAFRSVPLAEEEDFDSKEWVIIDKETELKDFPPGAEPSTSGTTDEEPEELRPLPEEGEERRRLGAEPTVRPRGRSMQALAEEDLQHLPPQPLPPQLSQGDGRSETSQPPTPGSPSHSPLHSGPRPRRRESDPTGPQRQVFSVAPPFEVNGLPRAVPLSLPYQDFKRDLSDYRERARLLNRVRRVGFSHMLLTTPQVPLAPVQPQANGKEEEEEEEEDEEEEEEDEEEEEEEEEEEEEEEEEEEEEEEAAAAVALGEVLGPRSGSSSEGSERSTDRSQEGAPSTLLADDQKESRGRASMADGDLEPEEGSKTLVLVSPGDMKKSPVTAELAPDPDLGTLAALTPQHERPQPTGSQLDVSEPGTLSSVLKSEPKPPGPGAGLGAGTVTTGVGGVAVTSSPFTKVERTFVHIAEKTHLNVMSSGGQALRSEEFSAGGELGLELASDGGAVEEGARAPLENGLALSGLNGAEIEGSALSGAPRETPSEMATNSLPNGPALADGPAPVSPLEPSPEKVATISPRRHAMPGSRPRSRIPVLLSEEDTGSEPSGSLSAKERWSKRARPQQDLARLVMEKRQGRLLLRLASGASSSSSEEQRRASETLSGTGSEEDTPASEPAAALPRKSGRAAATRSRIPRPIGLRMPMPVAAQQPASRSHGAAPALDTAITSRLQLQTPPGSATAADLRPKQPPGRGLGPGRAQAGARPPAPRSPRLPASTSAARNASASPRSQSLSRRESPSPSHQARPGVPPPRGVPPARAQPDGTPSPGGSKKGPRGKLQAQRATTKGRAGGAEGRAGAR

| test | setting | how to read | quantity | value | SMILES |
| --- | --- | --- | --- | --- | --- |
| enzyme activity, inhibitor | 10 µM | – | activity vs control | 102% | O=C(Cc1ccc(OCc2ccccc2)cc1)NC1(C(=O)O)CCN(C(=O)c2ccc(-c3cccc(Cl)c3)cc2)CC1 |
| enzyme activity | 1 µM | reference: DMSO control | remaining activity | 107% | Nc1ncc(-c2cc(-c3cnn(CC(F)(F)F)c3)ncc2F)nc1C(=O)NC1CNCC(F)C1 (centres unmarked) |
| enzyme activity, inhibitor | 1 µM | – | inhibition | 8% | Cc1nc2c(F)cc(-c3nc(Nc4ccc(CNC(=O)CCCCCCC(=O)NO)cc4)ncc3F)cc2n1C(C)C |
| enzyme activity, inhibitor | 10 µM | – | inhibition | -2% | NC(=O)C[C@H]1CCc2sc3ncnc(O[C@H]4CC[C@H](N5CCOCC5)CC4)c3c21 |
| enzyme activity, inhibitor | 1 µM | – | inhibition | -9% | CN1CC[C@@H](COc2cnc(C#N)cc2-c2ccn3nc(NC(=O)C4CC4)cc3c2)C1 |
| kinase activity | 0.1 µM, together with: ATP at Km | – | inhibition | 4.7% | CCn1cc(C(=O)O)c(=O)c2c(N)c(F)c(NC3CCCCC3)cc21 |
| enzyme activity, inhibitor | 10 µM | – | inhibition | -6% | NC(=O)[C@@H](O)C[C@H]1CCc2sc3ncnc(O[C@H]4CC[C@H](N5CCOCC5)CC4)c3c21 |
| enzyme activity, inhibitor | 1 µM | – | activity vs control | 105% | CNC(=O)C[C@H](Cc1ccc(C#N)cc1)NC(=O)c1cc(-c2ccc(CN[C@H](C)c3ccc(C)cc3)o2)ccc1Cl |

Excerpt of the above:
| test | setting | how to read | quantity | value | SMILES |
| --- | --- | --- | --- | --- | --- |
| enzyme activity, inhibitor | 10 µM | – | inhibition | -2% | NC(=O)C[C@H]1CCc2sc3ncnc(O[C@H]4CC[C@H](N5CCOCC5)CC4)c3c21 |
